Measured values from different studies.
Values joined by “and” are separate records of one study, mostly repeats; a detail may differ. Numbers after ± are the reported error.

`COc1ccc([C@@H](O)c2cc(-c3ncnc4cc(N5CCOCC5)ccc34)c(F)cc2Cl)nn1`: “metabolism, nutrition disorders incidence” 7% (patients, advanced solid tumours; oral, 200 mg twice daily, treatment-emergent, together with: avelumab).
`COc1cc2c(Oc3ccc4[nH]c(C)cc4c3F)ccnc2cc1OCC1(N)CC1`: “intestinal obstruction incidence” 0% (paediatric refractory sarcoma patients; 8 mg).
With `CC(C)C[C@H](NC(=O)[C@H](CCCCN)NC(=O)OCC1c2ccccc2-c2ccccc21)C(=O)N[C@H](C(=O)N[C@@H](Cc1ccccc1)C(=O)N[C@@H](Cc1ccccc1)C(=O)N[C@@H](CCCCN)C(=O)NCC(=O)N[C@@H](Cc1ccccc1)C(=O)N[C@@H](C)C(=O)N[C@@H](Cc1c[nH]c2ccccc12)C(=O)N[C@@H](CC(N)=O)C(=O)N[C@H](C(=O)N[C@H]1CSSC[C@@H](C(=O)N[C@@H](Cc2c[nH]cn2)C(=O)N[C@@H](CCCNC(=N)N)C(=O)N[C@@H](CCCNC(=N)N)C(=O)N[C@@H](C)C(=O)N[C@@H](CC(N)=O)C(N)=O)NC(=O)[C@H](C(C)C)NC(=O)[C@H](CCCNC(=N)N)NC(=O)[C@H](C(C)C)NC(=O)CNC(=O)[C@H](CC(N)=O)NC(=O)[C@H](CCCNC(=N)N)NC(=O)[C@H](Cc2ccc(O)cc2)NC(=O)[C@H](C(C)C)NC1=O)C(C)C)C(C)C` the albumin was 33.6 ± 1.21 g/L (ICR mouse, blood; intramammary, 5 mg/kg, day 5, 3 d dosing).
For `CCC[C@@](N)(CO)CCc1ccc(OCCCCCC(C)C)cc1`, the AUC(0-last) was 5.16 µM·h (hound dogs, male; oral, 5 mg/kg, capsule, fed state, geometric mean).
`COc1ccc2nc3cc(Cl)ccc3c(Nc3cc(CN4CCCC4)c(O)c(CN4CCCC4)c3)c2n1`: “platelet distribution width” 15.5% (mouse, blood; oral, 57 mg/kg, tolerability, mean).
`C[C@]1(CO)Cc2ncn(-c3ccc(C#N)c(Cl)c3)c2C(=O)O1` has a linearity index of 102% (human, plasma; 3 mg multiple doses; baseline: dose-proportional exposure).
`O=C(Nc1ccccc1)C1CCN(C(=O)Oc2cccnc2)CC1` — result for “change in Time score”: 0.6 (psychotropic effects VAS; healthy women; 20 mg; baseline: pre-dose baseline, direction not given).
`CCCCCCCCCCCCCCCC(=O)N[C@@H](CCC(=O)NCCCC[C@H](NC(=O)[C@H](CC(=O)O)NC(=O)[C@H](CO)NC(=O)[C@@H](NC(=O)[C@H](Cc1ccccc1)NC(=O)[C@@H](NC(=O)CNC(=O)[C@H](CCC(N)=O)NC(=O)[C@H](CO)NC(=O)[C@@H](N)Cc1c[nH]cn1)[C@@H](C)O)[C@@H](C)O)C(=O)N[C@@H](CO)C(=O)N[C@@H](CCC(=O)O)C(=O)N[C@@H](Cc1ccc(O)cc1)C(=O)N[C@@H](CC(C)C)C(=O)N[C@@H](CC(=O)O)C(=O)N[C@@H](CO)C(=O)N[C@@H](CCC(=O)O)C(=O)N[C@@H](CCCNC(=N)N)C(=O)N[C@@H](C)C(=O)N[C@@H](CCCNC(=N)N)C(=O)N[C@@H](CC(=O)O)C(=O)N[C@@H](Cc1ccccc1)C(=O)N[C@H](C(=O)N[C@@H](C)C(=O)N[C@@H](Cc1c[nH]c2ccccc12)C(=O)N[C@@H](CC(C)C)C(=O)N[C@@H](CCC(=O)O)C(=O)N[C@@H](C)C(=O)NCC(=O)NCC(=O)O)C(C)C)C(=O)O` has an abdominal distension of 0% (human, CrCl ≥20 to <30 mL/min; sc, 100 µg single dose).
`CO[C@H]1C[C@@H]2CC[C@@H](C)[C@@](O)(O2)C(=O)C(=O)N2CCCC[C@H]2C(=O)O[C@H]([C@H](C)C[C@@H]2CC[C@@H](OC(=O)NCCOCCOCCOCCOCCOCCOCCOCCOCCC(=O)N3CCc4cc(Cn5nc(-c6ccc7oc(N)nc7c6)c6c(N)ncnc65)ccc4C3)[C@H](OC)C2)C[C@@H](O)[C@H](C)/C=C(\C)[C@@H](O)[C@@H](OC)C(=O)[C@H](C)C[C@H](C)/C=C/C=C/C=C/1C` has a TRAE incidence of 75% (phase 1 dose escalation, item: mucositis; advanced solid tumour patients; intravenous, 16 mg weekly, any grade).
Under “Freundlich coefficient KF”, `COc1ccnc(C(=O)N[C@H]2COC(=O)[C@H](Cc3ccccc3)[C@@H](OC(=O)C(C)C)[C@H](C)OC2=O)c1OCOC(=O)C(C)C` is recorded as 137 mL/g (soil adsorption; clay loam soil; pH 7.2, organic carbon 4.4 %).
For `CC(C)CC(=O)OC[C@H]1O[C@@](C#N)(c2ccc3c(N)ncnn23)[C@H](O)[C@@H]1O`, the recovery was 84.2% (plasma protein binding; rat plasma; 90 µM, time not given).
Under “adverse event incidence”, `CN1CC[C@@H](c2c(O)cc(O)c3c(=O)cc(-c4ccc(C(F)(F)F)cc4Cl)oc23)[C@@H]1CO` is recorded as 22% and 22.5% (item: Fatigue; relapsed or refractory haematological malignancies; oral, dose not given, all grades).
`CC(c1cncnc1)n1c(=S)[nH]c2ccc(Cl)cc2c1=O` (centres unmarked) gave a clearance of 37.2 mL/min/kg (mouse, plasma; intravenous, dose not given).
For `CCN1[C@@H](C(=O)NC23CCC(C(=O)O)(CC2)CC3)[C@H](c2cccc(Cl)c2F)[C@]2(C(=O)Nc3cc(Cl)ccc32)C12CCCCC2`, “grade ≥3 vomiting incidence” read 0% (patients with advanced solid tumours; oral, 100 mg).
